Measurements collected from several papers.
Protocols differ between the studies behind these lines. Numbers after ± are the reported error.
lasR: Transcriptional activator protein LasR (lasR, Pseudomonas aeruginosa, UniProt P25084)
UniProt P25084, sequence (whole entry, looked up): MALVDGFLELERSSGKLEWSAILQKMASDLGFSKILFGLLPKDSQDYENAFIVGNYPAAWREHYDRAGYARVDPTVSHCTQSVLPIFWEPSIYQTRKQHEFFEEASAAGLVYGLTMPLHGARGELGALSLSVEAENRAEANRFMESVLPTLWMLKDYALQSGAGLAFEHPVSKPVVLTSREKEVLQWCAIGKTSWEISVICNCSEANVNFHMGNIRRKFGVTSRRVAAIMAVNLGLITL
Histidine kinase AgrC: Histidine kinase AgrC (Listeria monocytogenes, UniProt A8E0G3)
sdiA: Regulatory protein SdiA (sdiA, Escherichia coli, UniProt P07026)
UniProt P07026, sequence (whole entry, looked up): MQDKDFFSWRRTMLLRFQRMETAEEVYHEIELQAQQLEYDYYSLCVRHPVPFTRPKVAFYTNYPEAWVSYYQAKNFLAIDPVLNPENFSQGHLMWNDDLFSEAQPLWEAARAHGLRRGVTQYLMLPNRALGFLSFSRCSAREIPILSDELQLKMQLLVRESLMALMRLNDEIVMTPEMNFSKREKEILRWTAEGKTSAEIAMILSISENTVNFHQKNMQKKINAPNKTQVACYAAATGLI
PTH1R: Parathyroid hormone/parathyroid hormone-related peptide receptor (PTH1R, Homo sapiens, UniProt Q03431)
UniProt Q03431, sequence (whole entry, looked up): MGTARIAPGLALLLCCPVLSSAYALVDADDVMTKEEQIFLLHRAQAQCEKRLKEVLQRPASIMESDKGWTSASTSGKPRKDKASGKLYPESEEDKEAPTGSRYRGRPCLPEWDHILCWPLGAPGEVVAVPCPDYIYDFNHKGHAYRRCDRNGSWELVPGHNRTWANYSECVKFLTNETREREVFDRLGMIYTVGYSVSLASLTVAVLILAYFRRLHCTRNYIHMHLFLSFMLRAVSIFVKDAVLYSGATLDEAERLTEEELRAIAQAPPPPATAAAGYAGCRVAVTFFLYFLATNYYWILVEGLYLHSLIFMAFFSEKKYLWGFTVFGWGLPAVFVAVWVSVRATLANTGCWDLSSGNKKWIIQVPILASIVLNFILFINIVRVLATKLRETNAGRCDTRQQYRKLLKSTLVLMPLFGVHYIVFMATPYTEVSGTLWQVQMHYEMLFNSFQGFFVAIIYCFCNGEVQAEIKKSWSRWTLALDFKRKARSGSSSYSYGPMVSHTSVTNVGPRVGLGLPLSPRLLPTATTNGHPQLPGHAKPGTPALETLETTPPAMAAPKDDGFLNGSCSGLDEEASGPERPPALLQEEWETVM
UniProt O75469, sequence (whole entry, looked up): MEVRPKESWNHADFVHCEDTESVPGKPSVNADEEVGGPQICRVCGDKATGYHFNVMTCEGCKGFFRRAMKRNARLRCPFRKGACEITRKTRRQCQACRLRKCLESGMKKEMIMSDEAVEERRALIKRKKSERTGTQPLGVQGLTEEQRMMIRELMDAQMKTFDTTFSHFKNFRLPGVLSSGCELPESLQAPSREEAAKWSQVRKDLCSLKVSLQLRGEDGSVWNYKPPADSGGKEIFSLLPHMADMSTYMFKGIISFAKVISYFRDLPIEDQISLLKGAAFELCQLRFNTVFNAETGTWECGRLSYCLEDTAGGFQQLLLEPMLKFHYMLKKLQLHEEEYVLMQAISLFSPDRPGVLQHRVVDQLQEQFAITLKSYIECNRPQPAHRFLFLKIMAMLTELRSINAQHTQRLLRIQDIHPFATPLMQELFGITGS
UniProt Q9UKP6, sequence (whole entry, unmodified, looked up): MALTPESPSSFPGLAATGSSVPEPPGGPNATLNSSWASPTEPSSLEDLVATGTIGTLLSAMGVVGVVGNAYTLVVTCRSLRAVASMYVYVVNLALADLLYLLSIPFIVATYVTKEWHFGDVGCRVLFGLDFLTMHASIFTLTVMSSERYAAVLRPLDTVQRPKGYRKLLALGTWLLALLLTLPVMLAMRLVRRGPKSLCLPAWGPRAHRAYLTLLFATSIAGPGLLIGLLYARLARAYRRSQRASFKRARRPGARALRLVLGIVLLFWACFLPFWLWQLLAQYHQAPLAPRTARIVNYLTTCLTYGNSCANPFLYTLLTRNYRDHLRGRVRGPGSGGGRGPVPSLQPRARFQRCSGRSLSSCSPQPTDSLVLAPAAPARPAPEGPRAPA
UniProt P35372, sequence (whole entry, looked up): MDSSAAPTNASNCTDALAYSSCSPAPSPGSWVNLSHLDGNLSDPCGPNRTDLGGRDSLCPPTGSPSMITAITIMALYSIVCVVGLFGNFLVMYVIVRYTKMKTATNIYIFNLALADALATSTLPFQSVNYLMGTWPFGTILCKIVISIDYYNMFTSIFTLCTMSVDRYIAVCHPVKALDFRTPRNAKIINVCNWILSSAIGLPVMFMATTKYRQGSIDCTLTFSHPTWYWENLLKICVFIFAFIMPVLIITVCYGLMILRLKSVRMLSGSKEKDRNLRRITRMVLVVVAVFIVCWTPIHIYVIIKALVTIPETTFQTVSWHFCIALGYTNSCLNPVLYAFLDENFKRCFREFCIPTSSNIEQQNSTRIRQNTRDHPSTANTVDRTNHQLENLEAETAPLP
UniProt P41143, sequence (whole entry, unmodified, looked up): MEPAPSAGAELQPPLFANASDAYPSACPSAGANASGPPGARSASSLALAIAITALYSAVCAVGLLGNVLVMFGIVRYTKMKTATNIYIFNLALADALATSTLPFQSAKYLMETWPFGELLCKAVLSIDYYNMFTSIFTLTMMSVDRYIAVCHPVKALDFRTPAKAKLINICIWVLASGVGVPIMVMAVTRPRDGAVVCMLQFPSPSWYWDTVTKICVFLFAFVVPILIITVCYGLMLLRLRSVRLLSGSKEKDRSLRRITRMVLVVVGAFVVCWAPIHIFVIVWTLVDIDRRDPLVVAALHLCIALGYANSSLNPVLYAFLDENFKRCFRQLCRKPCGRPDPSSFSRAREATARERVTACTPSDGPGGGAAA
UniProt Q8BZ39, sequence (whole entry, looked up): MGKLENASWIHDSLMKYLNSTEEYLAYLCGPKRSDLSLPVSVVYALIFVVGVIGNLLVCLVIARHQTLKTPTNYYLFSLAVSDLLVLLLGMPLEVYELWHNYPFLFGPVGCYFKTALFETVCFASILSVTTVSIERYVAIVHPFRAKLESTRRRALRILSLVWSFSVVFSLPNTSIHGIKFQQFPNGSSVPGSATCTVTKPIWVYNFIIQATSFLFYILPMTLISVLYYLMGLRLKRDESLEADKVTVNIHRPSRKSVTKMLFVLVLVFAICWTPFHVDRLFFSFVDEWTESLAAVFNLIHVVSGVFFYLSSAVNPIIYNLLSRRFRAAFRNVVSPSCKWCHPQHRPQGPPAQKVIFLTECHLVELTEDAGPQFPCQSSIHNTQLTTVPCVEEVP
UniProt P37288, sequence (whole entry, looked up): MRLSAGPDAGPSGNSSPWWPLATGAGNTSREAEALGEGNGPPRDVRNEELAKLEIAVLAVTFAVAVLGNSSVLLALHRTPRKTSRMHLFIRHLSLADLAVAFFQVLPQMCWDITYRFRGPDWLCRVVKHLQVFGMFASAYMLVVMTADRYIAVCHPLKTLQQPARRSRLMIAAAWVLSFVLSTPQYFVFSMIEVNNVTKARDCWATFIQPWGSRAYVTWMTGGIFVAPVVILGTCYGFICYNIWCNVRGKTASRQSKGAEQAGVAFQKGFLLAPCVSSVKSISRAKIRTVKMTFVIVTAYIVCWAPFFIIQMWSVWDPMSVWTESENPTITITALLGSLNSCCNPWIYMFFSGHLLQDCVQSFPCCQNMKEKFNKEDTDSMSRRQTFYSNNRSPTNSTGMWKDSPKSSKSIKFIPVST

| SMILES | target | assay | test system | conditions | EC50 [µM] |
| --- | --- | --- | --- | --- | --- |
| CCCCCCCCCCCCCCCCCC(=O)NC[C@H]1CC[C@H](C(=O)N[C@@H](CCC(=O)NCCCOCCOCCOCCCNC(=O)COCC(=O)N[C@@H](Cc2ccc(O)cc2)C(=O)NC(C)(Cc2ccccc2)C(=O)N[C@@H](CC(C)C)C(=O)N[C@@H](CCCC)C(=O)N[C@@H](CCCNC(=N)N)C(=O)N2CCC[C@H]2C(=O)N[C@@H](CCCNC(=N)NC)C(=O)N[C@@H](CC(N)=O)C(N)=O)C(=O)O)CC1 (stereo partly shown) | Neuromedin-U receptor 2 (Mus musculus, UniProt Q8BZ39) | β-arrestin recruitment, agonist |  |  | 0.00309 |
| CC(C)[C@H](NC(=O)[C@@H]1CSSC(C)(C)[C@H](NC(=O)[C@@H](N)CC(=O)O)C(=O)N[C@@H](Cc2ccccc2)C(=O)N[C@@H](Cc2c[nH]c3ccccc23)C(=O)N[C@@H](CCCCN)C(=O)N[C@@H](Cc2ccc(O)cc2)C(=O)N1)C(=O)O | Urotensin-2 receptor (UTS2R, Homo sapiens, UniProt Q9UKP6, V152A) | IP1 accumulation, agonist, HTRF | HEK293T | 1 h, 37 °C, V152A mutant, 3.54 | 0.00158 |
| CCCCCC(=O)CC(=O)N[C@H]1CCOC1=O | lasR | reporter gene, agonist | ΔmexAB-oprM pump mutant |  | 26 |
| CSCC[C@H]1NC(=O)[C@H](Cc2ccccc2)NC(=O)[C@H](NC(=O)[C@H](C)N)CSC(=O)[C@H](C(C)C)NC(=O)[C@H](Cc2ccccc2)NC1=O | Histidine kinase AgrC |  |  |  | 0.0241 |
| O=C(Nn1c(-c2cccc(Cl)c2)nc2ccccc2c1=O)c1ccccc1 | TRPM channel (Clonorchis sinensis, UniProt G7YJJ5) | calcium reporter | HEK293, transiently transfected |  | 0.47 ± 0.09 |
| CCCCCCCC(=O)N[C@H]1CCSC1=O | sdiA |  |  |  | 0.00164 |
| CC[C@H](C)[C@@H]1NC(=O)[C@H](Cc2ccc(O)cc2)NC(=O)[C@@H](N)CSSC[C@H](N)C(=O)N[C@@H](Cc2ccc(O)cc2)C(=O)N[C@@H]([C@@H](C)CC)C(=O)N[C@@H](CCC(N)=O)C(=O)N[C@@H](CC(N)=O)C(=O)N[C@H](C(=O)N2CCC[C@H]2C(=O)N[C@@H](CC(C)C)C(=O)NCC(N)=O)CSSC[C@@H](C(=O)N2CCC[C@H]2C(=O)N[C@@H](CC(C)C)C(=O)NCC(N)=O)NC(=O)[C@H](CC(N)=O)NC(=O)[C@H](CCC(N)=O)NC1=O | Vasopressin V1a receptor (AVPR1A, Homo sapiens, UniProt P37288) | calcium signal, agonist, fluorescence |  |  | > 10 |
| O=C(Cc1cccc(C(F)(F)F)c1)N[C@H]1CCOC1=O | sdiA |  |  |  | 0.00392 |
| Cc1cc(O)cc(C)c1C[C@H](N)C(=O)N[C@H](CCCNC(=N)N)C(=O)N[C@@H](Cc1ccccc1)C(=O)N(C)CC(=O)N(C)Cc1cc(C(F)(F)F)cc(C(F)(F)F)c1 | Delta-type opioid receptor (OPRD1, Homo sapiens, UniProt P41143, N90S) | receptor activation, agonist |  |  | 0.0457 ± 0.0074 |
| O=C(COc1ccc(I)cc1)N[C@H]1CCSC1=O | sdiA |  |  |  | 0.00557 |
| O=C(CCCCCCCCCN=C=S)CC(=O)N[C@H]1CCOC1=O | lasR | reporter gene, agonist | ΔmexAB-oprM pump mutant |  | 1.3 |
| O=C(Cc1ccc(F)c(C(F)(F)F)c1)N[C@H]1CCOC1=O | sdiA |  |  |  | 0.00828 |
| CN(C)[C@H](CNC(=O)/C=C/c1cccc2ccccc12)Cc1ccc(O)cc1 | Mu-type opioid receptor, with GoB (OPRM1, Homo sapiens, UniProt P35372) | receptor activation, agonist |  |  | 0.0073 ± 0.0017 |
| O=C(COc1ccc(I)cc1)N[C@H]1CCOC1=O | sdiA |  |  |  | 0.00568 |
| O=C(CCc1ccc(Br)cc1)N[C@H]1CCOC1=O | lasR | reporter gene, agonist | ΔmexAB-oprM pump mutant |  | 24 |
| O=C(O)CCn1c(=O)oc2cc(Cl)c(Cl)cc21 | Nuclear receptor subfamily 1 group I member 2 (NR1I2, Homo sapiens, UniProt O75469) | reporter activity, activator |  |  | > 50.1 |
| CCCC[C@H](NC(=O)[C@H](CC(C)C)NC(=O)[C@H](CCC(N)=O)NC(=O)[C@@H](NC(=O)[C@H](CCC(=O)O)NC(=O)C(C)(C)NC(=O)[C@@H](NC(=O)C1(N)CCCC1)C(C)C)[C@@H](C)CC)C(=O)N[C@@H](Cc1c[nH]cn1)C(=O)N[C@@H](CCC(N)=O)C(=O)N[C@@H](CCCCNC(=N)N)C(=O)N[C@@H](C)C(=O)N[C@@H](CCCCNC(=O)[C@H](CCCNC(=N)N)NC(=O)CCCCCCCCCCCCCCCCC(=O)O)C(N)=O | PTH1R | cAMP, agonist, GloSensor | GP-2.3 | 120 min after washout | 0.0195 |
| CSCC[C@@H]1NC(=O)[C@H](Cc2ccccc2)NC(=O)[C@H](CS)NC(=O)[C@H](C(C)C)NC(=O)[C@H](Cc2ccccc2)NC1=O | Histidine kinase AgrC |  |  |  | 1.82 |
| CCCC(=O)N[C@H]1CCSC1=O | sdiA |  |  |  | 0.00685 |
| CSCC[C@@H]1NC(=O)[C@H](Cc2ccc(O)cc2)NC(=O)[C@@H](NC(=O)[C@H](C)N)CSC(=O)[C@H](C(C)C)NC(=O)[C@H](Cc2ccccc2)NC1=O | Histidine kinase AgrC |  |  |  | 0.518 |
| CSc1cccc(CC(=O)N[C@H]2CCOC2=O)c1 | sdiA |  |  |  | 0.00309 |
| CSCC[C@@H]1NC(=O)[C@H](Cc2ccccc2)NC(=O)[C@@H](N)CSC(=O)[C@H](C(C)C)NC(=O)[C@H](Cc2ccccc2)NC1=O | Histidine kinase AgrC |  |  |  | 0.107 |
| CCCC[C@H](NC(=O)[C@H](CC(C)C)NC(=O)[C@H](CCC(N)=O)NC(=O)[C@@H](NC(=O)[C@H](CCC(=O)O)NC(=O)C(C)(C)NC(=O)[C@@H](NC(=O)C1(N)CCCC1)C(C)C)[C@@H](C)CC)C(=O)N[C@@H](Cc1c[nH]cn1)C(=O)N[C@@H](CCC(N)=O)C(=O)N[C@@H](CCCCNC(=O)[C@H](CCCNC(=N)N)NC(=O)CCCCCCCCCCCCCCCCC(=O)O)C(N)=O | PTH1R | cAMP, agonist, GloSensor | GP-2.3 | 120 min after washout | 0.166 |
| O=C(Cc1ccccc1)N[C@H]1CCSC1=O | sdiA |  |  |  | 0.00533 |
| CSCC[C@@H]1NC(=O)[C@H](Cc2ccccc2)NC(=O)[C@@H](NC(=O)[C@H](C)N)CNC(=O)[C@H](C(C)C)NC(=O)[C@H](Cc2ccccc2)NC1=O | Histidine kinase AgrC |  |  |  | 0.342 |

Repeated from above:
| SMILES | target | assay | test system | conditions | EC50 [µM] |
| --- | --- | --- | --- | --- | --- |
| CCCCCCCC(=O)N[C@H]1CCSC1=O | sdiA |  |  |  | 0.00164 |
| CC[C@H](C)[C@@H]1NC(=O)[C@H](Cc2ccc(O)cc2)NC(=O)[C@@H](N)CSSC[C@H](N)C(=O)N[C@@H](Cc2ccc(O)cc2)C(=O)N[C@@H]([C@@H](C)CC)C(=O)N[C@@H](CCC(N)=O)C(=O)N[C@@H](CC(N)=O)C(=O)N[C@H](C(=O)N2CCC[C@H]2C(=O)N[C@@H](CC(C)C)C(=O)NCC(N)=O)CSSC[C@@H](C(=O)N2CCC[C@H]2C(=O)N[C@@H](CC(C)C)C(=O)NCC(N)=O)NC(=O)[C@H](CC(N)=O)NC(=O)[C@H](CCC(N)=O)NC1=O | Vasopressin V1a receptor (AVPR1A, Homo sapiens, UniProt P37288) | calcium signal, agonist, fluorescence |  |  | > 10 |
| O=C(Cc1cccc(C(F)(F)F)c1)N[C@H]1CCOC1=O | sdiA |  |  |  | 0.00392 |
| Cc1cc(O)cc(C)c1C[C@H](N)C(=O)N[C@H](CCCNC(=N)N)C(=O)N[C@@H](Cc1ccccc1)C(=O)N(C)CC(=O)N(C)Cc1cc(C(F)(F)F)cc(C(F)(F)F)c1 | Delta-type opioid receptor (OPRD1, Homo sapiens, UniProt P41143, N90S) | receptor activation, agonist |  |  | 0.0457 ± 0.0074 |
